Experimental data pooled from the literature.
Each numbered part is a random draw from the data of one study; scales do not carry over between parts.

Sample 1
Target: Histone acetyltransferase KAT6A, winged helix 2, GST fusion (KAT6A, Homo sapiens, UniProt Q92794, residues 85-181)
Method: protein binding microarray
Form: double-stranded DNA, one strand shown
Matrix: in vitro
Concentration: not given
Setting: 8-mer, flanks averaged, mean of 2 arrays, mostly near background
Reference: not given
Reading: higher = stronger binding
Measurement: E-score
Target sequence (chain): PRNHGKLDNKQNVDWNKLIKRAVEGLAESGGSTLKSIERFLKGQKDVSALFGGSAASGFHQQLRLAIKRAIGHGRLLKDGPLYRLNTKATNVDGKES
GTAATTCA: -0.0978
GAAGCCTC: 0.0667
AAAATTCG: 0.0263
TCGTTGCA: 0.0405
TACATGGA: -0.238
CCCACAAA: 0.223
AATTTGGA: -0.0145
AATATCCT: -0.0293

Sample 2
Target: Interferon regulatory factor 7, full length, phosphomimetic (IRF7, Homo sapiens, UniProt Q92985, residues 1-503, S471D/S472D/S475D/S476D/S477D/S483D/S484D/S487D)
Method: protein-binding microarray
Form: double-stranded DNA, one strand shown
Matrix: in vitro
Concentration: 2200 nM top
Setting: 60-bp whole probe
Together with: salmon DNA 0.4 mg/ml
Reference: random background probes
Reading: higher = stronger binding
Measurement: fitted relative affinity
All sequences stand within: GCCTAGCAC … GTCTTGATTCGCTTGACGCTGCTG
Construct (chain): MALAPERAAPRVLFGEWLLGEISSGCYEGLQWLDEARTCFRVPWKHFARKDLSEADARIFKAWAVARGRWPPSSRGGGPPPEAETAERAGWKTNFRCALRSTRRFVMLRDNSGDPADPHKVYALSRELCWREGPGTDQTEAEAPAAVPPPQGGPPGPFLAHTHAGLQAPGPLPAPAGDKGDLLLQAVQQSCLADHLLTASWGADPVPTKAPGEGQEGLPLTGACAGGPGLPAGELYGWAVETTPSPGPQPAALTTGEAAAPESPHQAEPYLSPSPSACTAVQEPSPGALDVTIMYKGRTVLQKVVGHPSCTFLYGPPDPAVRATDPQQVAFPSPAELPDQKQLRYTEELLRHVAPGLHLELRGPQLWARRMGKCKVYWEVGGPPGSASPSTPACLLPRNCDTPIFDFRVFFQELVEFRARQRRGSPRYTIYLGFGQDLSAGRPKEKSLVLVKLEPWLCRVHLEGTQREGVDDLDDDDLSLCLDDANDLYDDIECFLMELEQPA
GACGGTATCCTTAGCCTGACGTGCTAG: 0.562 z-score
TTAGAACTGAGTCTCTATTAGTGCTAG: -0.41 z-score
CCCCTACTGTATTTGGCCAGGTGCTAG: 0.243 z-score
TTAGATTTCAGTTTCGATTCGTGCTAG: 13.4 z-score
GACGGTTTCGTGTTTCGGGACGTGCTA: 8.08 z-score
GAATCTCTCATGTTACATTTGTGCTAG: 1.11 z-score
TTAGGGATCCTTATCCTTTAGTGCTAG: 0.0539 z-score
TTAGGTTTCTGGTATCGGTTAGTGCTA: 2.3 z-score

Sample 3
Cell line: HEK-293T/ACE2
Effect on: pseudovirus infection
Organism: VSV pseudotyped with SARS-CoV-2 spike
Concentration: 10 µM
Time: 16 h
Reference: vehicle-treated
Measurement: GFP-positive cells
CN(C)CCn1nnnc1SCC1=C(C(=O)O)N2C(=O)[C@@H](NC(=O)Cc3csc(N)n3)[C@H]2SC1: 75.1%
CNC(=C[N+](=O)[O-])NCCSCc1csc(CN(C)C)n1: 82.3%
Cc1cccc(C)c1OCC(=O)N[C@@H](Cc1ccccc1)[C@@H](O)C[C@H](Cc1ccccc1)NC(=O)[C@H](C(C)C)N1CCCNC1=O: 50.9%
CC1=C(/C=C/C(C)=C/C=C/C(C)=C\C(=O)O)C(C)(C)CCC1: 56.1%

Sample 4
Target: Replicase polyprotein 1ab, nsp13 helicase (rep, Severe acute respiratory syndrome coronavirus 2, UniProt P0DTD1)
Action: inhibitor
Concentration: 20 µM
Measurement: inhibition
COc1ccc2[nH]cc(CCNC(C)=O)c2c1: 1.91%
Cc1ccc(NC2=NCCN2)c(Cl)c1: 3.37%
O=C(NC1Cc2ccccc2N(C[C@@H](O)CO)C1=O)c1cc2cc(Cl)sc2[nH]1 (some centres unmarked): 10.9%
CN1CCCC(CC2c3ccccc3Sc3ccccc32)C1 (centres unmarked): 0.9%
CSc1cc2c(cc1C(F)(F)F)N(C(=O)Nc1cccnc1)CC2: -0.91%
C[C@@H](NC(=O)c1ncnc(N)c1Cl)c1ncc(C(=O)Nc2cc(C(F)(F)F)c(Cl)cn2)s1: 4.62%
C=CC(=O)N1CCC(Oc2cc3c(Nc4ccc(Cl)c(Cl)c4F)ncnc3cc2OC)CC1: -0.45%
CCC(CO)(C(=O)OC1CC2CCC(C1)[N+]2(C)C)c1ccccc1 (centres unmarked): 1.86%
COC(=O)c1sccc1S(=O)(=O)Nc1ccc(Nc2ccccc2)cc1OC: 0.92%
Oc1cc(Cl)ccc1Oc1ccc(Cl)cc1Cl: -0.02%
CCCCc1nc(Cl)c(CO)n1Cc1ccc(-c2ccccc2-c2nnn[nH]2)cc1: 9.37%
FCc1ccc(OCCOc2ccc(Cl)cc2Cl)c(Cl)n1: -3.4%
O=C1Nc2cc(Cl)c(Cl)cc2N2CCNCC12 (centres unmarked): 3.79%
C[C@@H](C1=C(CCN(C)C)Cc2ccccc21)c1ccccn1: 2.1%
Cn1c(=O)c(F)c(Nc2ccc(I)cc2F)c2c(=O)n(C[C@@H](O)CO)cnc21: 10.4%
CCc1cncnc1N1CCN(Cc2nc3ccc(C(F)(F)F)cc3[nH]2)CC1: 5.18%
Nc1nc2[nH]cnc2c(=S)[nH]1: 4.41%
O=C(Nc1ccccc1F)N[C@H]1N=C(c2ccccc2)c2ccccc2NC1=O: 6.96%
COc1cc(C(=O)OCCCN2CCCN(CCCOC(=O)c3cc(OC)c(OC)c(OC)c3)CC2)cc(OC)c1OC: 1.19%
c1cn2cc(-c3ccc4cn[nH]c4c3)nc(Nc3ccc(N4CCOCC4)cc3)c2n1: 4.84%
COc1ccccc1OCC(O)COC(N)=O (centres unmarked): 2.78%
CCS(=O)(=O)Nc1ccc2c(c1)/C(=C(/Nc1ccc(CN3CCCCC3)cc1)c1ccccc1)C(=O)N2: 10.9%
CCOC(=O)CC(=O)N1CCSC1COc1ccccc1OC (centres unmarked): -4.67%
CC(C)(C)NCC(O)c1ccc(O)cc1Cl (centres unmarked): 2.39%
C[C@H](N)C(=O)NCC(=O)N[C@H]1CSSC[C@@H](C(=O)O)NC(=O)[C@H](CO)NC(=O)[C@H]([C@@H](C)O)NC(=O)[C@H](Cc2ccccc2)NC(=O)[C@H]([C@@H](C)O)NC(=O)[C@H](CCCCN)NC(=O)[C@H](Cc2c[nH]c3ccccc23)NC(=O)[C@H](Cc2ccccc2)NC(=O)[C@H](Cc2ccccc2)NC(=O)[C@H](CC(N)=O)NC(=O)[C@H](CCCCN)NC1=O: 9.57%

Sample 5
Target: Replicase polyprotein 1ab, main protease (rep, Severe acute respiratory syndrome coronavirus 2, UniProt P0DTD1)
Effect on: enzyme activity
Concentration: 20 µM
Setting: with DTT
Measurement: inhibition
O=C1/C(=C/c2ccc([N+](=O)[O-])cc2)CS(=O)(=O)C/C1=C\c1ccc([N+](=O)[O-])cc1: -14.4%
O=C(c1cccs1)c1no[n+]([O-])c1C(=O)c1cccs1: 98.6%
Nc1nc(-c2ccc(Cl)c(Cl)c2)c(-c2ccncc2)s1: -20.4%

Sample 6
Target: Sal-like protein 4, full length isoform B (SALL4, Homo sapiens, UniProt Q9UJQ4-2, residues 1-616)
Method: universal PBM
Form: double-stranded DNA, one strand shown
Matrix: in vitro
Concentration: not given
Setting: 8-mer, flanks averaged, mean of replicates
Reading: higher = stronger binding
Measurement: E-score
CGTCCACC: -0.286
CAGTGTAC: -0.0833
GGCAGTCA: -0.0516
AAGGCAAC: -0.0151
GAGGATTA: 0.109
CTATTTGA: 0.207
GCCACCGA: -0.315
CAGTACCG: -0.224

For quick reference, copied from above (sample 4):
O=C(NC1Cc2ccccc2N(C[C@@H](O)CO)C1=O)c1cc2cc(Cl)sc2[nH]1 (some centres unmarked): 10.9%
CN1CCCC(CC2c3ccccc3Sc3ccccc32)C1 (centres unmarked): 0.9%
CSc1cc2c(cc1C(F)(F)F)N(C(=O)Nc1cccnc1)CC2: -0.91%
C[C@@H](NC(=O)c1ncnc(N)c1Cl)c1ncc(C(=O)Nc2cc(C(F)(F)F)c(Cl)cn2)s1: 4.62%
C=CC(=O)N1CCC(Oc2cc3c(Nc4ccc(Cl)c(Cl)c4F)ncnc3cc2OC)CC1: -0.45%
CCC(CO)(C(=O)OC1CC2CCC(C1)[N+]2(C)C)c1ccccc1 (centres unmarked): 1.86%
COC(=O)c1sccc1S(=O)(=O)Nc1ccc(Nc2ccccc2)cc1OC: 0.92%
